Assay results of several laboratories.
A part holds a random share of what one study measured. Positions count from the first letter of the parent shown.

Set 1
Target: CCNB1, cyclin fold, Cln2 fusion (human)
Technique: yeast growth competition, sequencing
Matrix: yeast
Setting: weak parent motif
Relative to: not given
Direction: higher = stronger binding
Endpoint: normalised enrichment score
Starting sequence: SGO1 docking peptide (human); PLAKRALKYTDEK
PLAKRALKYADEK [T10A]: 0.35
PLAKRALKYTDAK [E12A]: 0.369
PLAKRALKATDEK [Y9A]: 0.102
PLAARALKYTDEK [K4A]: 0.272
PLAKAALKYTDEK [R5A]: 0.04

Set 2
Target: Interferon regulatory factor 7, full length, phosphomimetic (IRF7, Homo sapiens, UniProt Q92985, residues 1-503, S471D/S472D/S475D/S476D/S477D/S483D/S484D/S487D)
Technique: protein-binding microarray
Form: double-stranded DNA, one strand shown
Matrix: in vitro
Concentration: 2200 nM top
Setting: 60-bp whole probe
With: salmon DNA 0.4 mg/ml
Relative to: random background probes
Direction: higher = stronger binding
Endpoint: fitted relative affinity
Constant ends, left off below: GCCTAGCAC … GTCTTGATTCGCTTGACGCTGCTG
Target sequence (chain): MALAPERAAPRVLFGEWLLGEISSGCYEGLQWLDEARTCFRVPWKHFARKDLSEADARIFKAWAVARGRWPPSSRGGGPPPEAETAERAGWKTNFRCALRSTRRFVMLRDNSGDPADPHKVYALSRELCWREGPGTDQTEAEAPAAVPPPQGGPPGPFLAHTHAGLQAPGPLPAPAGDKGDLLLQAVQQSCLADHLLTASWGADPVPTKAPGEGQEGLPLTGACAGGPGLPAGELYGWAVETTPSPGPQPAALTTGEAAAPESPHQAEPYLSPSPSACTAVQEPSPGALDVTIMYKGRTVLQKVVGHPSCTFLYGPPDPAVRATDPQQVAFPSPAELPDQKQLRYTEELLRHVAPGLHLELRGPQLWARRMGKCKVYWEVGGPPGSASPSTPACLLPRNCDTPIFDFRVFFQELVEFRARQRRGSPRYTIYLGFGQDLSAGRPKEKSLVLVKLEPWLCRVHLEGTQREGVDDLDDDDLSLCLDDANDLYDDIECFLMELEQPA
ACTTCATTGCATATAGAAAAGTGCTAG: 0.462 z-score
TTAGGTCTCATACTGCTTTAGTGCTAG: 0.578 z-score
TTAGGCTTCCTTCTCCTTTAGTGCTAG: 0.812 z-score
TTCTTTATGTACTCTCTCCATGTGCTA: 1.62 z-score
TCATATACCACTCTTGCACTGTGCTAG: 1.3 z-score
TCAGTTCTGCTTTGCCTACTGTGCTAG: 2.54 z-score
CACGGTTCCGGTTTCGGGACGTGCTAG: 5.55 z-score
TCACCTCTCTCTATTCAACTGTGCTAG: 2.2 z-score
GACGGTTTCGTTTCCGGGACGTGCTAG: 9.46 z-score
GTGTGTTTGTGTGTGTATGTGTGCTAG: 1.58 z-score
TTAGGTTTCGTCTATCGGTTAGTGCTA: 3.44 z-score
TCAATTGTGGTTTTCATACTGTGCTAG: 1.39 z-score
GACGGTTTCCTTTTCCTGACGTGCTAG: 5.66 z-score
GACGAACTGGGTACTGGAGACGTGCTA: -0.535 z-score
TTAGGTCTCGGTCACGGTTAGTGCTAG: 0.125 z-score
TCAGGTATTTTTTTGTAACTGTGCTAG: 0.547 z-score
CTCTGTCCCCCTTTTATATTGTGCTAG: 1.38 z-score
CACTTTGGATAACCAAAAACGTGCTAG: 0.878 z-score

Set 3
Target: Ras GTPase-activating protein-binding protein 1, full length (G3BP1, Homo sapiens, UniProt Q13283)
Sequence of UniProt Q13283 (whole entry, looked up): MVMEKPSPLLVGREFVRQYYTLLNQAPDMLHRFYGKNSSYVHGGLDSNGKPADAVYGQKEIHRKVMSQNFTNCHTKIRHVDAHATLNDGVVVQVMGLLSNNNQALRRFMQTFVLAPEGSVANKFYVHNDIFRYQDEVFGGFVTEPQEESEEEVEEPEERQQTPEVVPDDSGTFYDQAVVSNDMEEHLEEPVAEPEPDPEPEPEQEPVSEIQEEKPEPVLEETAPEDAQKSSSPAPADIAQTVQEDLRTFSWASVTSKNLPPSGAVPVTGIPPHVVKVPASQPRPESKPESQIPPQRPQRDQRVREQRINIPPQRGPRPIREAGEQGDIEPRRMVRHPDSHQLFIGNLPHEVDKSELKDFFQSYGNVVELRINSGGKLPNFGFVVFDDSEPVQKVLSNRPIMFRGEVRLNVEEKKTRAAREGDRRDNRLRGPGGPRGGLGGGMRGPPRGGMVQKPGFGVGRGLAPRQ
Technique: RNA Bind-n-Seq
Form: RNA
Matrix: in vitro
Concentration: 200 nM
Setting: whole 134-nt RNA, ends assumed
With: 150 mM KCl
Relative to: input library
Direction: higher = stronger binding
Endpoint: log2 enrichment
Constant ends, left off below: GGGAGUUCUACAGUCCGACGAUC … UGGAAUUCUCGGGUGUCAAGG
CAAGUCCUGUGCUACACAUCGUAUGUACCGAAUCGGGCCCGGGCCCGGGGCCCGGGAAAGUAUUAUGUUACGCCGUUCGGAUCUGCACUU: -1
AGUCCUGUGCUACACAUCGUAUGUACCGAAUCGGGGCCCCGGGCCCCGGCCCCGGGGAAAGUAUUAUGUUACGCCGUUCGGAUCUGCACU: -1.18
CAGUUUAAGAGGGGUUUCAUGCAAGGGCAUGUAAAUAGACAAGAAAAAGAAGAAAAAGAAGCAAUAUAUAAAGAACGUUGGCCAGAUUAU: -0.0853
ACCAUGCAGGUGGGCAUCUUUGGGAAGUAAAGCAAGGGGGGGAUAGGGAGGGGGGUAACACUUUGGGAACAGGUGGUCCCAGGUCGUUUC: 1.15
GUCCUGUGCUACACAUCGUAUGUACCGAAUCGGGGUUUUUGGGGUUUUUGGUUUUUGGAAAGUAUUAUGUUACGCCGUUCGGAUCUGCAC: -0.515
CACAGACAACACGCACCCACACAGACACAGAGGGAAGGGGUUGGGAUGGGGACAGGGUGCACAGCAGGGCGCGGUAGGACCCCAGCCCCU: 1.78
CACAGACAACACGCACCCACACAGACACAGAGGGAAGGGGUUGGGAUGGGAAAAGGGUGCACAGCAGGGCGGGGUAGGACCCCAGCCCCU: 1.99
ACCUUCACGGCAUGGUGCAACUCCCACCUGCGGAAGGCAGGCACACAGAUCGAGAACAUUGAUGAGGACUUCCGAGACGGGCUCAAGCUC: 1.07
AGUCCUGUGCUACACAUCGUAUGUACCGAAUCGGGAAAAAGGGAAAAAGGGAAAAAGGAAAGUAUUAUGUUACGCCGUUCGGAUCUGCAC: -0.722
UCCUGUGCUACACAUCGUAUGUACCGAAUCGGGAAAAAAGGGGAAAAAAGGAAAAAAGGGAAAGUAUUAUGUUACGCCGUUCGGAUCUGC: -0.286
UGGGAGGUGGAUUUUGUUUAUUUUUUUAGCUCAUUUCCAGGGGUGGGAAUUUUUUUCUAAUAUGUGUCAUGAAUAAAGUUGUUUUUGAAA: 0.213
GCAGGAAGUAAAAACAAAUGGAAAUGCUAAAGAUAGUGGCAGGGGUGGGGGUUGCUAAGGAAAGGGUGGGAUGGGAGUGGGUAAAGAGUU: 1.34
CCUGUGCUACACAUCGUAUGUACCGAAUCGGCCCCCCCGGGGCCCCCCCGGGCCCCCCCGGAAAGUAUUAUGUUACGCCGUUCGGAUCUG: -0.445
UAACUUUAGAGGAGGAUCUGAUGGAUAUGGCAGUGGACGUGGAUUUGGGGAUGGCUAUAAUGGGUAUGGAGGAGGACCUGGAGGCGGCAA: 0.202

Set 4
Target: RNA binding protein fox-1 homolog 2, RRM domain, GST-SBP tag (RBFOX2, Homo sapiens, UniProt O43251-10, residues 100-194)
Technique: RNA Bind-n-Seq
Form: RNA
Matrix: in vitro
Concentration: 365 nM
Setting: natural RNA segment, single round, ends assumed
Relative to: no-protein control
Direction: higher = stronger binding
Endpoint: RBNS enrichment (R)
Constant ends, left off below: GGGAGUUCUACAGUCCGACGAUC … UGGAAUUCUCGGGUGCCAA
Residues (chain): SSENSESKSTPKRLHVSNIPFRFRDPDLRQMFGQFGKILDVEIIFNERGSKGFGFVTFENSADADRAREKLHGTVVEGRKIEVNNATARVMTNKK
CAGGACUAUCUCUUUAUGGAAGGAGACAUAUGGGAACAUCCACCACUACCCUCUCCUACCAUCUUCCUGGGAAUGUGGCCUACCACUACCAGAGCUCCUGCCUACCAAGA: 0.446
GCCCCCCAUCUUGCUUUCCCAGGGGCUGGCUUAUUGACAUUCCUCACAUGUUCUGAGUAUGGAACCUCAUCUGUGUUGCUUUUUCUUUCUCUGUGUCCUCACUGUGGGGC: 0.755
AUGCUAAGACUCUUUGGUAAUCUAGAAGAGCUUCUAGUGAGAACCUGAUGGUAGGUCGUGGGGCCUGGUGAUUUCAAACAAAGCCAUCGCCUGCGUUCUUUCUCCUUCUG: 0.293
CUAUAUUCUCAGGCACACAUAGGCGCACAGAGACAGCUUCCUAGUAACUCACAUCAAUUUCGUUUAAUACAAACUGAUCCUGAAGAGCUGAGGAACUAUGUAAGUUCAGU: 0.372
GCUGUGUAAGAGAGACUGGUCCGUGGGACCAGCCACACACAUUACCUCUUCCACUUGAAAUGACUCUAAGGUUUUCAUUUUAUUCAAGCUUUGUGGGACAGACAAACUUU: 0.295
CGGUGGCUCCACCACUUCCGCAGGCCUGGAAACUUCCUUCUCCGGAGGACCUUUUACUAAAAGGUAGAAGACUUCAUGGCUUACUUGUUCCAUAACUCCAAGUGAGUCUG: 0.154
CAUCGGGAGACCCUCGGGGGCUUCUGUGGCCUCUGUGCCCGAUGACCUGCGUGGCUUCAGACAAGGCCCCAGCGUUACUGGGCUCAGCUUGUUGUUCUGUGUGGAGCGUG: 0.653
ACCUUCCGUUUCCAGCUUCUCCCACUUCAGCCUGUUCCCACGGCACCGGGGUUUCUACUCCUGUACCCUCUGCAGGUGGAGAGAGAGAAGCUGGGCCCAGUUUGGCCAUG: 0.24
GGGCCUUCUUCUCCAGAAGGCUGUUGCUGUCACUUGCUGCUAGGAGCCUCCAAGCUGAUCAAGCAAUUCUUUCCUGUAAUCUGAUAGGAGGCAGCAAGCAAGGACAUCCU: 0.244
AAACCUUUUCAGAUUUUUCAUCUGAUUUGUUCUUGCAGAUGUUCUUCUAUCAAAUACCUUAUUUUACCUUACAGAUAUUUGUUGCACAGGCAGAUACUGCUGUAUUUAGA: 0.434
AGCGUUGCUGAUGGAAGCAGCGUGUGAAGGGAUACGGACAAUCUCUCAGUCGAUGAGCCCUCGUCUGACUGACCAGAGUGGCCCAGCUUCUAUUCAAUUGGGAAAAUUUG: 0.397
AUUCCACAUUCUAGGGUAUUCUGUAAUUUGGCUCCUUACCAAUAUUAUUAAAAUCUUAUUAAAAUCUCCCUACCAAAGCAUGUACAUUUUUAUGUUAUUAUAAUUAUAUG: 8.86

Set 5
Target: Histone acetyltransferase KAT6A, winged helix 1, GST fusion (KAT6A, Homo sapiens, UniProt Q92794, residues 1-85)
Technique: protein binding microarray
Form: double-stranded DNA, one strand shown
Matrix: in vitro
Concentration: not given
Setting: 8-mer, flanks averaged, mean of 2 arrays, mostly near background
Relative to: not given
Direction: higher = stronger binding
Endpoint: E-score
Residues (chain): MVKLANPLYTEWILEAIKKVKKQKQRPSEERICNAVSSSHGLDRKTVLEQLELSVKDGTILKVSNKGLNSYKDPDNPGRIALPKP
AAGTCGCC: 0.0784
TACCGGAA: 0.193
TTAGCTAA: -0.254
AGGCGAAT: -0.0997
GTGTTGTA: -0.13
CGGCACTC: 0.301
AGGGCGTA: 0.158
GCGACCAC: 0.304
GTGGAGGA: -0.147
GTATGTAA: -0.0955
GGGGACAA: -0.0104
CCGATTAG: 0.0195
ATGCTGAA: -0.209
GCGGCCAC: 0.343
ATTCTCAA: -0.129
ACTACTTG: -0.0875
GACTGTAC: -0.0484
GCCCACGA: -0.144
AGCCAGTG: -0.167
ATCTTAAC: -0.0759
CCCAATAA: -0.232
AGCACAAG: -0.257
GCAGCTGC: 0.298
AACATCTC: -0.0136
GTAGGATA: -0.0817

Set 6
Target: Sal-like protein 4, full length isoform A (SALL4, Homo sapiens, UniProt Q9UJQ4, residues 1-1053)
Sequence of UniProt Q9UJQ4 (whole entry, looked up): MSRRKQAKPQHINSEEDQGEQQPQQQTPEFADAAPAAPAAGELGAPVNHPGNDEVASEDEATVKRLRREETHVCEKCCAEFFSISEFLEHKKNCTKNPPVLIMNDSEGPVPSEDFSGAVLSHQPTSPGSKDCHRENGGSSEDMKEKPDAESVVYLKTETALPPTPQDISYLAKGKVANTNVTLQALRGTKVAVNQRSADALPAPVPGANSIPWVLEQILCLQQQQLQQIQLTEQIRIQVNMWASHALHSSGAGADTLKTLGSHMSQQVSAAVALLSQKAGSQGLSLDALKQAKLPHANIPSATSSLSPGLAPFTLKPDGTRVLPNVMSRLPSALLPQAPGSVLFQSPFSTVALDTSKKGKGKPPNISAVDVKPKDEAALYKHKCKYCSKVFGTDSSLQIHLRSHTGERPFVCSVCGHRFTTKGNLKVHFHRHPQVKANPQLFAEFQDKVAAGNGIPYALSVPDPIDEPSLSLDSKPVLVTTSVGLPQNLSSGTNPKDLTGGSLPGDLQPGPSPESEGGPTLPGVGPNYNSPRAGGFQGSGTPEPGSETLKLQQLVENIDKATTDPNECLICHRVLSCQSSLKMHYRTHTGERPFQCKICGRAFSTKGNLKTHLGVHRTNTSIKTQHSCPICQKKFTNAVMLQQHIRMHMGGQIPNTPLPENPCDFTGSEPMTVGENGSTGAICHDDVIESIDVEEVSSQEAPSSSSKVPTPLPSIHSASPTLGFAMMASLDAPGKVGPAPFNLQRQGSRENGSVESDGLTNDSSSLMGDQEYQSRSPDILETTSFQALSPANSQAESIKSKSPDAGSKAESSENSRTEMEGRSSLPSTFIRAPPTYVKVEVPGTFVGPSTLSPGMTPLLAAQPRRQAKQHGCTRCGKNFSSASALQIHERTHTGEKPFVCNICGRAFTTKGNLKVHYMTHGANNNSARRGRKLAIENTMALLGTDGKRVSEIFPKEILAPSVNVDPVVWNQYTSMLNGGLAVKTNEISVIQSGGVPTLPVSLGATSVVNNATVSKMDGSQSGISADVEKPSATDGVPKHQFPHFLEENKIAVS
Technique: universal PBM
Form: double-stranded DNA, one strand shown
Matrix: in vitro
Concentration: 600 nM
Setting: 8-mer, flanks averaged, mean of replicates
Direction: higher = stronger binding
Endpoint: E-score
CAAGCCCC: -0.341
CCGGCAGC: -0.281
GGCAGGCC: -0.391
TAATCTCA: 0.188
AACACGAG: 0.0116
TTAATAAA: 0.45
AAACTCGT: 0.099
CCCAGTAC: -0.26
CCGTCTCC: -0.306
GCTTACCA: 0.00412
GGAGCGTA: -0.0325
ACTGCGTA: -0.231
ATTTGTCG: 0.17
AGATAATA: 0.341
ACACGGAC: -0.118
AACCTCAT: 0.0921
ATATGCCA: 0.126
AAACCGTT: -0.0817
AATAACGT: 0.312
CTACCCTC: -0.0905
CCGGGCGC: -0.406
ATGTGAGG: 0.0372

Repeated from above (set 6):
CCCAGTAC: -0.26
TTAATAAA: 0.45
AACACGAG: 0.0116
TAATCTCA: 0.188
ATTTGTCG: 0.17
AGATAATA: 0.341
ACACGGAC: -0.118
GGCAGGCC: -0.391
CCGGCAGC: -0.281
ATGTGAGG: 0.0372
AACCTCAT: 0.0921
CTACCCTC: -0.0905
CCGTCTCC: -0.306
CAAGCCCC: -0.341
ACTGCGTA: -0.231
AATAACGT: 0.312
